Measurements gathered from unrelated publications.
A part holds a random share of what one study measured.

Block 1
Target: Sal-like protein 4, full length isoform B (SALL4, Homo sapiens, UniProt Q9UJQ4-2, residues 1-616)
Technique: universal PBM
Form: double-stranded DNA, one strand shown
Medium: in vitro
Tested at: not given
Notes: 8-mer, flanks averaged, mean of replicates
Direction: higher = stronger binding
Target sequence (chain): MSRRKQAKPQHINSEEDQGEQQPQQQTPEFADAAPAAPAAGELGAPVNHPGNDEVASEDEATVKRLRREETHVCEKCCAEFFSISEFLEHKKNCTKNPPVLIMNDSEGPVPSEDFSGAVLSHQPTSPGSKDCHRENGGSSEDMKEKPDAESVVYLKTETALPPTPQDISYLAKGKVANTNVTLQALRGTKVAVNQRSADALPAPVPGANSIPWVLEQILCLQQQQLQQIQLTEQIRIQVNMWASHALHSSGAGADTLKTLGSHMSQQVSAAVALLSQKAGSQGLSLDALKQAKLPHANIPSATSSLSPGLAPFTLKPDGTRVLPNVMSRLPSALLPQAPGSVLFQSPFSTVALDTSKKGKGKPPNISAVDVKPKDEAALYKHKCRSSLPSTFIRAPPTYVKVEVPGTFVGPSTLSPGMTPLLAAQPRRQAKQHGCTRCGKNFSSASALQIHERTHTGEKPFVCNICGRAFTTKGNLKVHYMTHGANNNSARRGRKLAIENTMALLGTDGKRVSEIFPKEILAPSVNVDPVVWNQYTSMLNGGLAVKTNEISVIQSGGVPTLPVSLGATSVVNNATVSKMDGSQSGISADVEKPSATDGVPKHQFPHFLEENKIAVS
Strand	E-score
GCATGACC	-0.224
AGGGCACA	-0.0172
AATCTCCA	0.107
ATACGCTG	0.0162
GACCAGGA	-0.234
ACTGTCTA	0.00903
AATAAGGA	0.15
GAGAAGGC	-0.197
CCCCGTAC	-0.206
ACCACACT	-0.00972
ACCCCGCA	-0.179
GAACATCA	0.0711
ATTTAAAG	0.232
CCTACTCA	-0.152
ATCTTCCA	0.0457
CCTACAGG	-0.274
TGTATTAA	0.337
AACCAGGT	-0.138
GCGCTACA	0.0409
CCCCGTCC	-0.234
AGGATGCC	-0.245
CGGCAGTC	-0.202
AACTTCGG	-0.00348
CAGGGACG	-0.149
ACAGAACT	0.198

Block 2
Target: Ras GTPase-activating protein-binding protein 1, full length (G3BP1, Homo sapiens, UniProt Q13283)
UniProt Q13283, sequence (whole entry, looked up): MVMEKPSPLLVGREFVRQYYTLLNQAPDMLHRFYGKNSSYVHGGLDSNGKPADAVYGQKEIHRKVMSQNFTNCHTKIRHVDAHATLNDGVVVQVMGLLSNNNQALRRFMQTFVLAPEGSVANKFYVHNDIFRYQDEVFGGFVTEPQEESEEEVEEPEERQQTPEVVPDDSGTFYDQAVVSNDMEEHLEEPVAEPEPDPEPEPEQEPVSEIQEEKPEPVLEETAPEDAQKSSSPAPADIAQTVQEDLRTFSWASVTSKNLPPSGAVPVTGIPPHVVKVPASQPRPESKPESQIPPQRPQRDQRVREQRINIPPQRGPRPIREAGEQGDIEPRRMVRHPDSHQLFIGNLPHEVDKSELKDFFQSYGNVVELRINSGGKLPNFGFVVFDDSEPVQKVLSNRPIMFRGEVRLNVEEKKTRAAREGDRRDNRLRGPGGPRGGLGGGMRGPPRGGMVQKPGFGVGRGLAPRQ
Technique: RNA Bind-n-Seq
Form: RNA
Medium: in vitro
Tested at: 200 nM
Notes: whole 134-nt RNA, ends assumed
Added: 150 mM KCl
Relative to: input library
Direction: higher = stronger binding
All sequences stand within: GGGAGUUCUACAGUCCGACGAUC … UGGAAUUCUCGGGUGUCAAGG
Strand	log2 enrichment
GUCCUGUGCUACACAUCGUAUGUACCGAAUCGGGGUGGGGUUUUUUUGGGGUUUGGGGAAAGUAUUAUGUUACGCCGUUCGGAUCUGCAC	0.317
UUCCUCAAGUCCUGUGCUACACAUCGUAUGUACCGAAUCGGGUGGUGGUGGAAAGUAUUAUGUUACGCCGUUCGGAUCUGCACUUCCAGC	-0.288
CACAGACAACACGCACCCACACUGACACAGAGGGAAGGGGUUGGGAUGGGGACAGGGUGCACAGCAGGGCGGGGUAGGACCCCAGCCCCU	2.01
AGUCCUGUGCUACACAUCGUAUGUACCGAAUCGGGGCCCCGGGGCCCCGGGCCCCGGGAAAGUAUUAUGUUACGCCGUUCGGAUCUGCAC	-0.785
CUCAAGUCCUGUGCUACACAUCGUAUGUACCGAAUCGGGUGGGAAAGGGUGGGAAAGUAUUAUGUUACGCCGUUCGGAUCUGCACUUCCA	1.01
CAAGUCCUGUGCUACACAUCGUAUGUACCGAAUCGGGAAAGGGAGGGAAAAAGGGAAAGUAUUAUGUUACGCCGUUCGGAUCUGCACUUC	0.795
UCCUCAAGUCCUGUGCUACACAUCGUAUGUACCGAAUCGGGUGGUGGGUGGGAAAGUAUUAUGUUACGCCGUUCGGAUCUGCACUUCCAG	1.23
CACAGACAACACGCACCCACACAGACACAGAGGGAAGGGGUUGGGAUGGGGACAGGGUGCACAGCCGGGCGGGGUAGGACCCCAGCCCCU	1.85
CUGUGCUACACAUCGUAUGUACCGAAUCGGGUUUUUUUGGGGUUUUUUUGGGUUUUUUUGGAAAGUAUUAUGUUACGCCGUUCGGAUCUG	-0.749

Block 3
Target: RNA binding protein fox-1 homolog 2, RRM domain, GST-SBP tag (RBFOX2, Homo sapiens, UniProt O43251-10, residues 100-194)
Technique: RNA Bind-n-Seq
Form: RNA
Medium: in vitro
Tested at: 365 nM
Notes: natural RNA segment, single round, ends assumed
Relative to: no-protein control
Direction: higher = stronger binding
All sequences stand within: GGGAGUUCUACAGUCCGACGAUC … UGGAAUUCUCGGGUGCCAA
Construct (chain): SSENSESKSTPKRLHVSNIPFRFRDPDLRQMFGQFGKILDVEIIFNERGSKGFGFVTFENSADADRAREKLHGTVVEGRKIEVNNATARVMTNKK
Strand	RBNS enrichment (R)
CAGGACACAGGAAGCUCAGGCGCAGAGGCGGAGGAGCAAGCUGGCACCGAGAAGACAAGGGAAGGUCUUCCCCCCAGAGGCACAUUCCUGUCCGUCUUUCUGCUGCACAC	0.994
GGAGAGAAUGGCUGGGUGCUGGGGAGUUCCCCCCUCCGAGCCCUCCUUCCCGGCCCAACCUGAGGGAUGUGGAUUUGGGACUGUCUGGGGGCCCCUCCUGCAGCGAGGAU	0.452
GGUGAGGAAGGGCAUCUUCCUGACUCCUCUGCCCAGUGCUGGAAGGAGCAUGCCUGGGUUAGUGGGCCAGGGGCCAGGCAGCUGGGGGCCUUUGGGGACCAGAAGGGGAG	3.48
CCUCUGCAACUCCUCCCCCUUUUAUUUCCCCAAUUUAAACAAAGAUUCUGCCAACUGUGGAAACUUCAGUCCCUCAGGCUGGCAGCCAUGCCAGUACCUGCCUGGGGGUG	0.611
GCUGGGACCCUCGCCCACUCCACGCAGGACCCGGGUCUGCGCACCUGCCGAGCGGCUGCUGGAGUCUGGAGCCAUCGCAUUGCGGGUGUAGCAGCGCAUCAGGCUUGAGA	0.471
CUCUUGAACUUGGGUGGGGAACCCCACCCAAAAGCCCCCUUGUUAGCUCUUUGGCAAUUCUCCUUCCCUCACUCCUCAGGGUGGGGGCUAGAGUAAGCCUGACAUCCUCC	0.278
GGGCAACAGCUGCUGCUGCUUUUGAACAGAAUGGUAGACAGCAUUUACCCUCAGCCACUUCCUCUGGCUGUCACAGAACAGGAUGGUGGCCUGGGGGAUGCACACUUGUA	0.53
UGGACUCUAUACAGUGAGGGCCACUCACCGACCUGAGUCAGUGUCCUCUGUCUCACAGGGCCCCUCUCCCUUCUGUUCAGUAAACAAACUGAAGCCAAAAAUGAAGCCGU	0.25

Block 4
Target: Phosphate system positive regulatory protein PHO4, full length, GST-tagged (PHO4, Saccharomyces cerevisiae, UniProt P07270, residues 1-312)
Technique: competition protein-binding microarray
Form: double-stranded DNA, one strand shown
Medium: in vitro
Tested at: 2 µM
Notes: whole 60-bp probe, lowest competitor level
Added: Cbf1 competitor, 0.05 µM
Direction: higher = stronger binding
All sequences stand within: … GTCTTGATTCGCTTGACGCTGCTG
Target sequence (chain): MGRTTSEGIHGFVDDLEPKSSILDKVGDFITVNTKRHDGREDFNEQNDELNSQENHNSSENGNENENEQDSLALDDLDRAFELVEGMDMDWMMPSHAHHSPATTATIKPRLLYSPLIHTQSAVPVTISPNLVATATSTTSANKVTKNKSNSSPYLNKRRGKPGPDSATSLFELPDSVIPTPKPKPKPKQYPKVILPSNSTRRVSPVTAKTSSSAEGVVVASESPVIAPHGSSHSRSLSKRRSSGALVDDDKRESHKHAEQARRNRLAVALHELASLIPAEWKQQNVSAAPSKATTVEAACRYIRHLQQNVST
Strand	fluorescence intensity [a.u.]
GCAGAGGAGATCAGTCTCGTGAAGTGGATGGTTTCC	4220
GAAGTCGCCAGGGTGCGCGGGCACTCAGGGTAAGAG	4630
TTGAGTATTATGGTGGCATACTTTCAAGGGAGCTTG	3740
CATGCTATGATGCCCACTGTGATATCCAGAGCAAAG	4570
TGCGCAACAACTTGGAATGTGGGTGTATGTCTAGAA	7010
AATTCCACACCGCACCATGTGCCCATCAAGTCCAAC	11700
AGGCCCTAGGGGCCGTGCGTGGAGTAAAAAGGTTTG	8180
CGATATAGAACAAAGCACGTGTAATTATTCAACTTT	18400
CTTTCCCGATCTTGTCACGGAACTTTAGCACATTTG	3940
CTAAATCCGCTTCTGCTCGTGGTGAGTACTTGCGCG	9880
AGGTCGCTAAAAATCCACGTTAACGGGACGCTGGTA	5320
AGCTGGGAAAACTTCCATGTGGTCTTCGTCCTCAAC	8780
TGTTACACATCGACATACGTGCTTTCATAGAAAGAG	7830
TGCTGCATTTCTCACCACGTCCTGGTGGGAGTTTCC	4910
GAGATGATATGTTTGCTGGTGTCGCACTGCCTTTCA	4190
TCCCTGGGTCCCGGCCACGTGTAACGCTTCAACAAC	17400
GTAGGAGCCCCTTAGGGCGTGCCAGTAGTTTAAAGC	7870
TGCTCTCGAAGCCGTCACGTGCGGATCTAGGCCTGC	17100
TGCGCAACAACTTGCCGGGTGGGTGTATGTCTAGAA	4300
